Experimental data from different studies.
Parts stem from different laboratories: compare values within a part only.
Sequence of UniProt O43283 (whole entry, looked up): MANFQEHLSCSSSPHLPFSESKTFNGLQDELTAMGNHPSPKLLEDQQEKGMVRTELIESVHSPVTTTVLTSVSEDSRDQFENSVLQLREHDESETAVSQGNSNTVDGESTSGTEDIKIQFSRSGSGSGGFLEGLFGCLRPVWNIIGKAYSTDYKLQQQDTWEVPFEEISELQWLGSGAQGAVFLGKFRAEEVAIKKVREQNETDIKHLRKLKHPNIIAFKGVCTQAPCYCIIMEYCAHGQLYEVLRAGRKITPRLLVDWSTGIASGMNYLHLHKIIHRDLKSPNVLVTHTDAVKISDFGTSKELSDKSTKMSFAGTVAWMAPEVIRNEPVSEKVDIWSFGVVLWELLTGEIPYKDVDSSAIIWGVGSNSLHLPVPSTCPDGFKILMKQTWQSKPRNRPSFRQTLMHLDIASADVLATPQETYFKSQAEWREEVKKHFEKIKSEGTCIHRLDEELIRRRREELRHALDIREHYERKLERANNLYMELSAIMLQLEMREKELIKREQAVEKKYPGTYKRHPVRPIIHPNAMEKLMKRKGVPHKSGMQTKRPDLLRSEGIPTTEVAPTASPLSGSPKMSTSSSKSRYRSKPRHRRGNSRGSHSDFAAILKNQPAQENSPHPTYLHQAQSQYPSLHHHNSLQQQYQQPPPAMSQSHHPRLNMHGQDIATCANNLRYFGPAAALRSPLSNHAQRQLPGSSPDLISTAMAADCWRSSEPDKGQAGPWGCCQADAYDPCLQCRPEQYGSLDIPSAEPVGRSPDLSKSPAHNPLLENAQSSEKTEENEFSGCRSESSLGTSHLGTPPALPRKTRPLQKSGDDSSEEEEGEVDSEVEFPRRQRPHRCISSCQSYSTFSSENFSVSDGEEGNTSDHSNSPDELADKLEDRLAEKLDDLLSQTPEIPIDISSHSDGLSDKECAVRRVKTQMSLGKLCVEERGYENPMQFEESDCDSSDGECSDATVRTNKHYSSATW
Sequence of UniProt O14965 (whole entry, looked up): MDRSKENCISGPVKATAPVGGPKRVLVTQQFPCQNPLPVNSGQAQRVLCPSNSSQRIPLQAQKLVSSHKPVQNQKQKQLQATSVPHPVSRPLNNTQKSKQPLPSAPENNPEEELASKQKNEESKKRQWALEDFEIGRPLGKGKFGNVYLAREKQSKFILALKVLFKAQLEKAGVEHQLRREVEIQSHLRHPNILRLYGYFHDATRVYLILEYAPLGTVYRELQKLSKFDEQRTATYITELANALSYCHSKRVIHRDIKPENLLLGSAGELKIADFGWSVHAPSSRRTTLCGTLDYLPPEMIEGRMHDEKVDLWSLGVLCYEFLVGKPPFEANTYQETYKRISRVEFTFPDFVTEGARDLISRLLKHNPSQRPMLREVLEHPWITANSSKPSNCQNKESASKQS
Sequence of UniProt Q8IW41 (whole entry, looked up): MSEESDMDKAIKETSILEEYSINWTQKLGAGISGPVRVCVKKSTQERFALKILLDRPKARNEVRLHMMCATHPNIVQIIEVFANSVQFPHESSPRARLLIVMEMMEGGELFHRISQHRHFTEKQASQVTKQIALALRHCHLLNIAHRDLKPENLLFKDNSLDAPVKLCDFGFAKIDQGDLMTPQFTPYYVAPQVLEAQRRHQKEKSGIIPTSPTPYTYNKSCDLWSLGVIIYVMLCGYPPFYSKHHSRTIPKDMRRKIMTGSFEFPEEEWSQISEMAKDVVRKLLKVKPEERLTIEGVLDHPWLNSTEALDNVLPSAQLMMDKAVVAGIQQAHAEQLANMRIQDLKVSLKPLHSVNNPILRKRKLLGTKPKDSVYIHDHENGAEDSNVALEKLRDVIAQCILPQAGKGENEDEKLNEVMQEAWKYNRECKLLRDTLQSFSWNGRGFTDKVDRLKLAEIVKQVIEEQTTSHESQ
Sequence of UniProt P09619 (whole entry, looked up): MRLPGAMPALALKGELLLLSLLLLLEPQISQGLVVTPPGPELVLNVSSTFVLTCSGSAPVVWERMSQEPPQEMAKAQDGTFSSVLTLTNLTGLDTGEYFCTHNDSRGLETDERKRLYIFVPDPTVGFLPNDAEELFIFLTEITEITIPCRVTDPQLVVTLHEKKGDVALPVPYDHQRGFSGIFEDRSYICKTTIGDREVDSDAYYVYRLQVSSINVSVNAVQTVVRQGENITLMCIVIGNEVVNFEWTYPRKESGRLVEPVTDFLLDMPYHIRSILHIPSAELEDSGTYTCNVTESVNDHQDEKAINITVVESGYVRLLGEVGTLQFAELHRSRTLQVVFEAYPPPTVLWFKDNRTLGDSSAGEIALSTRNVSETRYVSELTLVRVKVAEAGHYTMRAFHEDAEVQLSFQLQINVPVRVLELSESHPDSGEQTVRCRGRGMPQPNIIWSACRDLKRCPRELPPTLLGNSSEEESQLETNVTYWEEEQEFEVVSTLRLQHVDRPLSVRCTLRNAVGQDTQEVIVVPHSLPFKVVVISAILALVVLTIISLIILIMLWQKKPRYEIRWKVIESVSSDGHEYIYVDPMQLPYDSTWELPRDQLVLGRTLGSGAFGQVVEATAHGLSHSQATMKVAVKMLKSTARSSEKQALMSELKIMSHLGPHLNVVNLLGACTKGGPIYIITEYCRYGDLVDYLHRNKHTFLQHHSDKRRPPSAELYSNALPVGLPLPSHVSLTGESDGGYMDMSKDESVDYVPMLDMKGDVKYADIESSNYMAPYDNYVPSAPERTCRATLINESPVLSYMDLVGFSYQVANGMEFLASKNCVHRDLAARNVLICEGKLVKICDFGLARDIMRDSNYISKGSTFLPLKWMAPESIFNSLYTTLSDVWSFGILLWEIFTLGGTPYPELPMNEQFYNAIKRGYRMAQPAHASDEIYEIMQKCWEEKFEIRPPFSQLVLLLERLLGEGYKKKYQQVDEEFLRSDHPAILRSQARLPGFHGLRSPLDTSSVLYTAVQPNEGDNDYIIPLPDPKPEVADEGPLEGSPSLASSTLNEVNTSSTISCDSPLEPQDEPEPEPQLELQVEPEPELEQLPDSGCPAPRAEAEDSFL
Sequence of UniProt P06239 (whole entry, looked up): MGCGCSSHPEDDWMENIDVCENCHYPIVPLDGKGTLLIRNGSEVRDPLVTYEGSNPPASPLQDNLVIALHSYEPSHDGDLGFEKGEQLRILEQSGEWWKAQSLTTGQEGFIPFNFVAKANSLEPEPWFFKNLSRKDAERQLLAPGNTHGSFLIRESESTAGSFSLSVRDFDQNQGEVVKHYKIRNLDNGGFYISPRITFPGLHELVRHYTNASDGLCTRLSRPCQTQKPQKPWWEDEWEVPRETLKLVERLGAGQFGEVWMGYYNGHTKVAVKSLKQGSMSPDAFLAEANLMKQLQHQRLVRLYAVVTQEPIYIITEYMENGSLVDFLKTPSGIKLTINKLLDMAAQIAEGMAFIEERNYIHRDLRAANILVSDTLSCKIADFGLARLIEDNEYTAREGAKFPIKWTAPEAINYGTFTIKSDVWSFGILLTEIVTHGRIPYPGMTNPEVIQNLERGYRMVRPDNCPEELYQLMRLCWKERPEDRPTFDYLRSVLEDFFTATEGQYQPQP
Sequence of UniProt P19525 (whole entry, looked up): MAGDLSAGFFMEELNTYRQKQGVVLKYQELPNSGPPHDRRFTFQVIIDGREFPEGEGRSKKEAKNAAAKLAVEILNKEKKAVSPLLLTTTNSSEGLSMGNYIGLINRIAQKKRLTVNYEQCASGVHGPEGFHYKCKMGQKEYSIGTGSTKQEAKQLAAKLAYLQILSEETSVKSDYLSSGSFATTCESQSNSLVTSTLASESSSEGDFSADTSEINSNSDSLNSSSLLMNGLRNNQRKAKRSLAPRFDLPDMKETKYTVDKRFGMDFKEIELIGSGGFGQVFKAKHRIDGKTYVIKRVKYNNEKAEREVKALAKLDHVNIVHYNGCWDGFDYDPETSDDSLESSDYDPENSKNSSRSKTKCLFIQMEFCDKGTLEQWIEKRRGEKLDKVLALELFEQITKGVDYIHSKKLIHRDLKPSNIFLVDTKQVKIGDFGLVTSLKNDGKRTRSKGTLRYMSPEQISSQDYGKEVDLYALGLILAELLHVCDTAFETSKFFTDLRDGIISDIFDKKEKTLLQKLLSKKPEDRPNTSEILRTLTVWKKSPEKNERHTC
Sequence of UniProt P57059 (whole entry, looked up): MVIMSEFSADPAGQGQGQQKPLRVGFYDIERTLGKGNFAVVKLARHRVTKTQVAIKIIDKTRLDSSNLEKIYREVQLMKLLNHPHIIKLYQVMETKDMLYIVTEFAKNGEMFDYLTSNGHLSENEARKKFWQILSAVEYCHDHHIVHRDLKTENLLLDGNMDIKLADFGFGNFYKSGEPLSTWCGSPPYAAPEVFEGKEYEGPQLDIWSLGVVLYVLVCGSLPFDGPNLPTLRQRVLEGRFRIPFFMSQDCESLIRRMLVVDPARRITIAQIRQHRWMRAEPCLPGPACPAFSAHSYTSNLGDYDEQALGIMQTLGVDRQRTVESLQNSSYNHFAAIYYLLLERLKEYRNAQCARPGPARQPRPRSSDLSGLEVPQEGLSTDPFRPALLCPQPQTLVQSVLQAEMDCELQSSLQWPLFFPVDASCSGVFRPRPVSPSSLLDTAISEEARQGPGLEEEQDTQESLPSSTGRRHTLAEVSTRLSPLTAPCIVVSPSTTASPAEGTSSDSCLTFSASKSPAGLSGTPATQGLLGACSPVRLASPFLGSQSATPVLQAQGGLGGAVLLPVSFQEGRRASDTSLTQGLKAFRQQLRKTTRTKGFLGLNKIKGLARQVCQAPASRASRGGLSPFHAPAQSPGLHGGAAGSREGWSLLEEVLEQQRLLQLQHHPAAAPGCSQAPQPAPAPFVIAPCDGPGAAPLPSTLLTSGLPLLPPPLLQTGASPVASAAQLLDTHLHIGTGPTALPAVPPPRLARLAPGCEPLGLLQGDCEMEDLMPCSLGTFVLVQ

Series 1
Species: human
Medium: microsomes or S9
Tested at: 2 µM
Time: 0.5 h
SMILES	remaining compound [%]
CC(=O)Nc1ccc(-n2nnc(C(=O)NCCCN(C)C)c2N)cc1	72.4
CC1(C)C[C@H](O)[C@@H](n2/c(=N/C#N)[nH]c3ccccc32)c2cccc([N+](=O)[O-])c2O1	97
O=C(Nc1ccc2nc(N3CCC(N4CCCCC4)CC3)cc(C(=O)O)c2c1)c1ccccc1F	> 100
O=S(=O)(NCCNCC1(O)CNCCOC1)c1ccc(Cl)cc1 (stereo not drawn)	94.3

Series 2
Cell line: mouse MPNST tumor cells
Technique: high-content immunofluorescence imaging
Refers to: nuclear SOX9
Tested at: 10 µM
Time: 12 h
Notes: mean of 2 replicates
Reference: DMSO control
Reading: higher = more nuclear SOX9
Compound	nuclear SOX9 intensity
N=C(N)NCCCC[C@@H]1NC(=O)CCSSC[C@@H](C(N)=O)NC(=O)[C@@H]2CCCN2C(=O)[C@H](Cc2c[nH]c3ccccc23)NC(=O)[C@H](CC(=O)O)NC(=O)CNC1=O	101 % of DMSO
CC1=C(C(=O)Nc2cc3cn[nH]c3cc2F)C(c2ccc(C(F)(F)F)cc2)CC(=O)N1 (stereo not drawn)	78.5 % of DMSO
CC(C)N1CCN(S(=O)(=O)c2ccc(NC(=O)c3ccc(C(F)(F)F)cc3[N+](=O)[O-])cc2)CC1	113 % of DMSO
COc1c(Cl)cc2c([nH]c3cnccc32)c1NC(=O)c1cccnc1C	95.3 % of DMSO

Series 3
SMILES: CC(C)n1cnc(-c2ccc(F)cc2)c1-c1ncc(C(=O)Nc2ccc(N3CCN(C)CC3)cc2)[nH]1
Technique: phase 2a trial
Species: idiopathic pulmonary fibrosis patients
Route: oral
dose	notes	patients with TEAE [%]
30 mg once daily	LDL increased, grade 5	0
dose not given	GLDH increased, grade 5, all arms	0
60 mg once daily	disc protrusion, grade 3	0

Series 4
SMILES: O=C(NCc1ncc(C(F)(F)F)cc1Cl)c1ccc2c(c1)C1(CCS(=O)(=O)CC1)[C@H](C1CC1)N2S(=O)(=O)c1ccc(F)cc1
Tested at: 1 µM
target	observed	technique	remaining binding [%]
FLT3 (Homo sapiens, UniProt P36888, D835Y)	cell-free assay	competition with immobilised ligand	100
MAP3K13 (Homo sapiens, UniProt O43283)	cell-free assay	competition with immobilised ligand	0
SYK (Homo sapiens, UniProt P43405)	cell-free assay	competition with immobilised ligand	100
MAPK15 (Homo sapiens, UniProt Q8TD08)	cell-free assay	competition with immobilised ligand	100
CDK2 (Homo sapiens, UniProt P24941)	cell-free assay	competition with immobilised ligand	85
EIF2AK2 (Homo sapiens, UniProt P19525)	cell-free assay	competition with immobilised ligand	100
BTK (Homo sapiens, UniProt Q06187)	cell-free assay	competition with immobilised ligand	64
MATK (Homo sapiens, UniProt P42679)	cell-free assay	competition with immobilised ligand	73
MAPKAPK5 (Homo sapiens, UniProt Q8IW41)	cell-free assay	competition with immobilised ligand	100
MAP2K7 (Homo sapiens, UniProt O14733)	cell-free assay	competition with immobilised ligand	72
LCK (Homo sapiens, UniProt P06239)	cell-free assay	competition with immobilised ligand	100
SIK1 (Homo sapiens, UniProt P57059)		competition binding	100
Aurora kinase A (AURKA, Homo sapiens, UniProt O14965)	cell-free assay	competition with immobilised ligand	97
MAPK1 (Homo sapiens, UniProt P28482)	cell-free assay	competition with immobilised ligand	81
PDGFRB (Homo sapiens, UniProt P09619)	cell-free assay	competition with immobilised ligand	92
CDKL3 (Homo sapiens, UniProt Q8IVW4)	cell-free assay	competition with immobilised ligand	100

Series 5
Target: Sal-like protein 4, full length isoform B (SALL4, Homo sapiens, UniProt Q9UJQ4-2, residues 1-616)
Technique: universal PBM
Molecule type: double-stranded DNA, one strand shown
Medium: in vitro
Tested at: not given
Notes: 8-mer, flanks averaged, mean of replicates
Reading: higher = stronger binding
Sequence	E-score
ATCCCGCC	-0.338
ACGTATCC	-0.176
GGAGCATA	0.00755
CAGGGAAG	-0.199
GGAAGTCA	-0.117
ATTATTTG	0.357
CCCACCTC	-0.202
CATTCGTA	0.242

Mixed results
Structure (SMILES)	organism	observed	tested at	notes	reference	measurement	value
CN1[C@@H]2CC[C@H]1C[C@@H](OC(c1ccccc1)c1ccccc1)C2.CS(=O)(=O)O	Sarcocystis neurona	parasite growth	concentration not given	first screen	untreated	log2 fold change	-0.04

A few entries again (mixed results):
Structure (SMILES)	organism	observed	tested at	notes	reference	measurement	value
CN1[C@@H]2CC[C@H]1C[C@@H](OC(c1ccccc1)c1ccccc1)C2.CS(=O)(=O)O	Sarcocystis neurona	parasite growth	concentration not given	first screen	untreated	log2 fold change	-0.04
